# Assay results of several laboratories.
# A part holds a random share of what one study measured.
# Chain of UniProt Q96NX5 (whole entry, looked up): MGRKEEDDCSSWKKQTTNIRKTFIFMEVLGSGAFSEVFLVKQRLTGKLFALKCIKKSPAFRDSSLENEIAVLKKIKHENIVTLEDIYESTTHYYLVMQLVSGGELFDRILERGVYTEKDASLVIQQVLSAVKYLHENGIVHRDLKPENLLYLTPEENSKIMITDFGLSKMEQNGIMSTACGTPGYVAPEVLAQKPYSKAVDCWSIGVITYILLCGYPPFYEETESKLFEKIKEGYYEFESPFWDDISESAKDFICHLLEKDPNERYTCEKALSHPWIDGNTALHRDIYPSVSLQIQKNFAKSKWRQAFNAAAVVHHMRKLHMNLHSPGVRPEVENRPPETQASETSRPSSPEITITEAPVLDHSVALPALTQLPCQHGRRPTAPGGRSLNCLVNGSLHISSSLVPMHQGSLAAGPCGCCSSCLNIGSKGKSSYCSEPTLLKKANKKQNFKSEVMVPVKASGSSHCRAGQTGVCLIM
# Chain of UniProt Q13555 (whole entry, looked up): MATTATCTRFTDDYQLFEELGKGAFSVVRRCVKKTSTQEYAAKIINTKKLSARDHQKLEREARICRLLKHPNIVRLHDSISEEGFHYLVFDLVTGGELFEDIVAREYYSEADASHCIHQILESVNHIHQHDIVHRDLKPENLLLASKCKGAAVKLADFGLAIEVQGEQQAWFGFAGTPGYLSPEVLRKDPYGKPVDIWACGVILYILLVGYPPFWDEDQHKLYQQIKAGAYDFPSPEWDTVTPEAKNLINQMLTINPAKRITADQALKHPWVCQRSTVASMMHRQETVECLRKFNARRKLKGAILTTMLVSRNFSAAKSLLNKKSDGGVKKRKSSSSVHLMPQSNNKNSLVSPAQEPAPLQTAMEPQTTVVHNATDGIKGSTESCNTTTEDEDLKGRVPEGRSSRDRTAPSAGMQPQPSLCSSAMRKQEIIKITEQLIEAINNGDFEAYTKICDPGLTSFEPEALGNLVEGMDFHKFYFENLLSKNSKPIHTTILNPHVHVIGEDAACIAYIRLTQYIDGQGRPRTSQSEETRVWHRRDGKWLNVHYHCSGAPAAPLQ
# Chain of UniProt P10721 (whole entry, unmodified, looked up): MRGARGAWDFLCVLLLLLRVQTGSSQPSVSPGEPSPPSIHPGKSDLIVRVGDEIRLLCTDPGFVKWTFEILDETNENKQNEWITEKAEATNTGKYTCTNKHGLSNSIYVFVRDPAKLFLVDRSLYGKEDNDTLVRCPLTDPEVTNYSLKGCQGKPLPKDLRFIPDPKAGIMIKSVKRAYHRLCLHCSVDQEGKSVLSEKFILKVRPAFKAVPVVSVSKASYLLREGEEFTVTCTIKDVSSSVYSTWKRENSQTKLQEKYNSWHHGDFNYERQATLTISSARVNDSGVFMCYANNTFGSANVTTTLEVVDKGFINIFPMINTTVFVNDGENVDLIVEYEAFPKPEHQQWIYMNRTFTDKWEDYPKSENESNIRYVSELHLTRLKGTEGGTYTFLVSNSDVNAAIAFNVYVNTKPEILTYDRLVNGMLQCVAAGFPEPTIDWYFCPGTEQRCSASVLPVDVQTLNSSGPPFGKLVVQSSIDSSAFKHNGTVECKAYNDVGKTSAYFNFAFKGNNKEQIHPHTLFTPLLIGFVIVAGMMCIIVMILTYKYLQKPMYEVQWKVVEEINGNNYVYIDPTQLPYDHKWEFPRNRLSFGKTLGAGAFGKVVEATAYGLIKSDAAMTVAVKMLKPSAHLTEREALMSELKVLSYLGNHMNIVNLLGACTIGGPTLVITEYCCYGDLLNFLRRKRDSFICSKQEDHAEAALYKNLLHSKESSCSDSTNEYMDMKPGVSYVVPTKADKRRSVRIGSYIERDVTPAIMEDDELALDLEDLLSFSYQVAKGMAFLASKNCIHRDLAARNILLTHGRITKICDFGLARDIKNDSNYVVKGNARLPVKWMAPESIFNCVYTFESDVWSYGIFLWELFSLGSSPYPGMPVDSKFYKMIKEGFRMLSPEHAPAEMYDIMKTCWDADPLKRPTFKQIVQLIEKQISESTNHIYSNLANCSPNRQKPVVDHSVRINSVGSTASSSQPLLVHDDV
# Chain of UniProt Q92630 (whole entry, looked up): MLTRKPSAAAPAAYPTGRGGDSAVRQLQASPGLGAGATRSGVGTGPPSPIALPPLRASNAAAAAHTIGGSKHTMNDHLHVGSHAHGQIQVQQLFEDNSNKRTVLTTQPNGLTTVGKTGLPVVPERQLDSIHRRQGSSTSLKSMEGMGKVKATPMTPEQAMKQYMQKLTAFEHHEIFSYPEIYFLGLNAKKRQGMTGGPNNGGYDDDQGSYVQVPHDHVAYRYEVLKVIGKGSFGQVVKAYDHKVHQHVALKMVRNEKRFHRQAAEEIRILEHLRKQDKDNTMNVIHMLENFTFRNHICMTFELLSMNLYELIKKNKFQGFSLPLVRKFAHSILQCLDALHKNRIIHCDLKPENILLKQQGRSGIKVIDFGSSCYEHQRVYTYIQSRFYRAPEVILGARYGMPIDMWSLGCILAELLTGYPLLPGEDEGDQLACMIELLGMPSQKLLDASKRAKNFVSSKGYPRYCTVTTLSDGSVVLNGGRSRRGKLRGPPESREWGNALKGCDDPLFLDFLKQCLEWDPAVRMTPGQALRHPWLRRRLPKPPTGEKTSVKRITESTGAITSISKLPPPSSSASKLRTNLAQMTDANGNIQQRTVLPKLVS
# Chain of UniProt P45983 (whole entry, looked up): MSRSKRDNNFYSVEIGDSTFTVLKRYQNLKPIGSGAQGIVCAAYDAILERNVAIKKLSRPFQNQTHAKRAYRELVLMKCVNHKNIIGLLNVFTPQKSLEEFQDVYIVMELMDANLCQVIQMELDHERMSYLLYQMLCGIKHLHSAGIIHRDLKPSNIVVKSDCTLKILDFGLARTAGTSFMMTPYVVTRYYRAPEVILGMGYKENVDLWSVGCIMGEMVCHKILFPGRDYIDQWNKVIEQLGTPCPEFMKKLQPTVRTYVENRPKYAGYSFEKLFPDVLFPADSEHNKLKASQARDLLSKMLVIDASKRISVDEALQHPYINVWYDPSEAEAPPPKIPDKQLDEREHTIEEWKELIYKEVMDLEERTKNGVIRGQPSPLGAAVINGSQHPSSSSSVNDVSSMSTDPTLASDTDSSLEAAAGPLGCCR
# Chain of UniProt P20794 (whole entry, looked up): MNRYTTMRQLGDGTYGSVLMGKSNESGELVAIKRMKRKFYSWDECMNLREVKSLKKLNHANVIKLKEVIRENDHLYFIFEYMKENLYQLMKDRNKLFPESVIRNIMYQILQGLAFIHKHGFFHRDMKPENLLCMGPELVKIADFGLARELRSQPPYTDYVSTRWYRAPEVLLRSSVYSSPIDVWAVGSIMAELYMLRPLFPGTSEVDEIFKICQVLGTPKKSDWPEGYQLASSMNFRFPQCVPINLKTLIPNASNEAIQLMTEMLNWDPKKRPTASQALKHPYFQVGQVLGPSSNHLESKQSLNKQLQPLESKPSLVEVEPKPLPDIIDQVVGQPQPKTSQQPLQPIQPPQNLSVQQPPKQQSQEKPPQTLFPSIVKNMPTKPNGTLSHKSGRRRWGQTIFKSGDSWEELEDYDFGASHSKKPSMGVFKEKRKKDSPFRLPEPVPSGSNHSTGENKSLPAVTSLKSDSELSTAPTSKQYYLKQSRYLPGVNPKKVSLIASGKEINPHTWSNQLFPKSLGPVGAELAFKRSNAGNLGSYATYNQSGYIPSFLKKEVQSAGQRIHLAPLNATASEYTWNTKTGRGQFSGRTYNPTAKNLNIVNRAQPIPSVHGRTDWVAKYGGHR

# Series 1
# Compound: CC(=O)N1CCC(c2ccc(C(=O)NC3=NCCN3)cc2C(F)(F)F)CC1
# Tested at: 1 µM
target,assay,remaining binding
"Serine/threonine-protein kinase ULK1 (ULK1, Homo sapiens, UniProt O75385)","cell-free assay, competition with immobilised ligand",85%
"Serine/threonine-protein kinase MRCK gamma (CDC42BPG, Homo sapiens, UniProt Q6DT37)",competition binding,93%
"NT-3 growth factor receptor (NTRK3, Homo sapiens, UniProt Q16288)","cell-free assay, competition with immobilised ligand",100%
"Dual specificity tyrosine-phosphorylation-regulated kinase 2 (DYRK2, Homo sapiens, UniProt Q92630)","cell-free assay, competition with immobilised ligand",93%
"Mast/stem cell growth factor receptor Kit (KIT, Homo sapiens, UniProt P10721, V559D)","cell-free assay, competition with immobilised ligand",100%
"Ribosomal protein S6 kinase alpha-6, N-terminal kinase domain (RPS6KA6, Homo sapiens, UniProt Q9UK32)","cell-free assay, competition with immobilised ligand",94%
"Phosphatidylinositol 4-phosphate 5-kinase type-1 gamma (PIP5K1C, Homo sapiens, UniProt O60331)","cell-free assay, competition with immobilised ligand",99%
"TGF-beta receptor type-1 (TGFBR1, Homo sapiens, UniProt P36897)","cell-free assay, competition with immobilised ligand",100%
"Serine/threonine-protein kinase Nek2 (NEK2, Homo sapiens, UniProt P51955)","cell-free assay, competition with immobilised ligand",100%
"Calcium/calmodulin-dependent protein kinase type II subunit gamma (CAMK2G, Homo sapiens, UniProt Q13555)","cell-free assay, competition with immobilised ligand",100%
"Serine/threonine-protein kinase tousled-like 2 (TLK2, Homo sapiens, UniProt Q86UE8)","cell-free assay, competition with immobilised ligand",100%
"Receptor-type tyrosine-protein kinase FLT3 (FLT3, Homo sapiens, UniProt P36888, F691L/ITD)","cell-free assay, competition with immobilised ligand",88%
"Mitogen-activated protein kinase kinase kinase 20 (MAP3K20, Homo sapiens, UniProt Q9NYL2)","cell-free assay, competition with immobilised ligand",88%
"Tyrosine-protein kinase Fgr (FGR, Homo sapiens, UniProt P09769)","cell-free assay, competition with immobilised ligand",100%
"Transient receptor potential cation channel subfamily M member 6 (TRPM6, Homo sapiens, UniProt Q9BX84)","cell-free assay, competition with immobilised ligand",90%
"Protein kinase C theta type (PRKCQ, Homo sapiens, UniProt Q04759)","cell-free assay, competition with immobilised ligand",93%
"Cyclin-dependent kinase-like 3 (CDKL3, Homo sapiens, UniProt Q8IVW4)","cell-free assay, competition with immobilised ligand",100%
"Mitogen-activated protein kinase 8 (MAPK8, Homo sapiens, UniProt P45983)","cell-free assay, competition with immobilised ligand",84%
"Tyrosine-protein kinase ABL1, phosphorylated (ABL1, Homo sapiens, UniProt P00519, H396P)","cell-free assay, competition with immobilised ligand",100%
"Serine/threonine-protein kinase DCLK1 (DCLK1, Homo sapiens, UniProt O15075)","cell-free assay, competition with immobilised ligand",89%
"Fibroblast growth factor receptor 3 (FGFR3, Homo sapiens, UniProt P22607)","cell-free assay, competition with immobilised ligand",100%
"Cyclin-dependent kinase 18 (CDK18, Homo sapiens, UniProt Q07002)","cell-free assay, competition with immobilised ligand",100%
"Leucine-rich repeat serine/threonine-protein kinase 2 (LRRK2, Homo sapiens, UniProt Q5S007)","cell-free assay, competition with immobilised ligand",100%
"Calcium/calmodulin-dependent protein kinase type 1G (CAMK1G, Homo sapiens, UniProt Q96NX5)","cell-free assay, competition with immobilised ligand",100%
"Serine/threonine-protein kinase MAK (MAK, Homo sapiens, UniProt P20794)","cell-free assay, competition with immobilised ligand",61%

# Series 2
# Organism: Plasmodium berghei
# Mode: inhibitor
# Cells: Huh-7
# Strain: GFP-expressing, liver stage
# Tested at: 10 µM
# Time: 24 h
# Reference: untreated control
SMILES,infection rate [%]
C[N+]1(CCCCC[N+]2(C)CCCC2)CCCC1,95.8
CC1(C)O[C@@H]2[C@@H](CO[C@@]3(COS(N)(=O)=O)OC(C)(C)O[C@@H]23)O1,106
O=C1NS(=O)(=O)c2ccccc21,108
Nc1ccc(S(=O)(=O)Nc2cnc3ccccc3n2)cc1,113
CCCCC1C(=O)N(c2ccccc2)N(c2ccccc2)C1=O,94.1
C=CC[C@@H]1/C=C(\C)C[C@H](C)C[C@H](OC)[C@H]2O[C@@](O)(C(=O)C(=O)N3CCCC[C@H]3C(=O)O[C@H](/C(C)=C/[C@@H]3CC[C@@H](O)[C@H](OC)C3)[C@H](C)[C@@H](O)CC1=O)[C@H](C)C[C@@H]2OC,65.8
CCN(CC)CCCC(C)Nc1c2ccc(Cl)cc2nc2ccc(OC)cc12 (centres unmarked),381
CC(=O)CCCCn1c(=O)c2c(ncn2C)n(C)c1=O,88.8
CO[C@H]1C[C@@H]2CC[C@@H](C)[C@@](O)(O2)C(=O)C(=O)N2CCCC[C@H]2C(=O)O[C@H]([C@H](C)C[C@@H]2CC[C@@H](O)[C@H](OC)C2)CC(=O)[C@H](C)/C=C(\C)[C@@H](O)[C@@H](OC)C(=O)[C@H](C)C[C@H](C)/C=C/C=C/C=C/1C,16.9
NC[C@@H]1O[C@H](O[C@H]2[C@@H](O)[C@H](O[C@@H]3[C@@H](O)[C@H](N)C[C@H](N)[C@H]3O[C@H]3O[C@H](CO)[C@@H](O)[C@H](O)[C@H]3N)O[C@@H]2CO)[C@H](N)[C@@H](O)[C@@H]1O,102
C1CNCCN1,100
C[C@]12C=CC(=O)C=C1CC[C@@H]1[C@@H]2C(=O)C[C@@]2(C)[C@H]1CC[C@]2(O)C(=O)CO,89.2
CC(C)(C)NCC(O)c1cc(O)cc(O)c1 (centres unmarked),100

# Series 3
# Target: Calcium/calmodulin-dependent protein kinase type II subunit alpha (CAMK2A, Homo sapiens, UniProt Q9UQM7)
# Chain of UniProt Q9UQM7 (whole entry, looked up): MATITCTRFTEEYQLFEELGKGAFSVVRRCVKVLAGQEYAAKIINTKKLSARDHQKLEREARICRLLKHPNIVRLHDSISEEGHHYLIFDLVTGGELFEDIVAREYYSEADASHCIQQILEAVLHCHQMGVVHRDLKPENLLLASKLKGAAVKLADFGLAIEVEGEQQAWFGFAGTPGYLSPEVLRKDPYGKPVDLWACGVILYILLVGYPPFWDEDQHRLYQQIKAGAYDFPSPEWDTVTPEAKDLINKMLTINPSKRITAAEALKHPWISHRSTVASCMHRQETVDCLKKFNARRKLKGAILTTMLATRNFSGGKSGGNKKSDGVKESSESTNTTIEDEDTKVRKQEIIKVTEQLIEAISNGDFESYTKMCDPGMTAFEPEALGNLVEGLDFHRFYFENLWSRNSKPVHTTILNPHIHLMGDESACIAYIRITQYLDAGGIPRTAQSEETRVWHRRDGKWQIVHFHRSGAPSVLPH
# Read-out: enzyme activity
# Mode: inhibitor
# Tested at: 10 µM
Compound,inhibition [%]
COc1ccc(-c2oc3c(CC=C(C)C)c(O)cc(O)c3c(=O)c2O[C@@H]2O[C@@H](C)[C@H](O)[C@@H](O)[C@H]2O)cc1,3
CC1(C)Oc2cc3oc(=O)ccc3cc2CC1O (racemic),-19
COc1cccc(CC(=O)O)c1,-28
N#C/C(=C1/SC[C@@H](c2ccc(Cl)cc2Cl)S1)n1ccnc1,2
C[C@@H](NCCc1ccc(O)cc1)[C@@H](O)c1ccc(O)cc1 (racemic),2
CC(=O)OCC(=O)[C@@]1(O)CC[C@H]2[C@@H]3CCC4=CC(=O)C=C[C@]4(C)[C@H]3[C@@H](O)C[C@@]21C,2
C=C[C@]1(C)CC[C@@H](C(=C)C)C[C@H]1C(=C)C,24
CN(C)CCOCC(=O)NC12CC3CC(CC(C3)C1)C2,2
C[C@H]1[C@H](C)CC[C@]2(C(=O)O)CC[C@]3(C)C(=CC[C@@H]4[C@@]5(C)CC[C@@H](O)C(C)(C)[C@@H]5CC[C@]43C)[C@H]12,-18
Nc1ncnc2c1ncn2[C@@H]1O[C@H](CO)[C@@H](O)[C@H]1O,-7
O=C(O)CCCC[C@@H]1CCSS1,-11
Cc1ccc(C(C)C)cc1O,-4
COc1c(O)cc2oc(-c3ccc(O)cc3)cc(=O)c2c1O,0
O=C1Nc2ccccc2/C1=C1/Nc2ccccc2C1=O,9
O=C(O)CC(=O)C(=O)O,-15
O=C1c2c(O)cc(O)cc2O[C@H](c2cc(O)c(O)c(O)c2)[C@H]1O,-50
CC/C=C\C/C=C\C/C=C\C/C=C\C/C=C\CCCCCC(=O)O,5

# Series 4
# Target: BDNF/NT-3 growth factors receptor (NTRK2, Homo sapiens, UniProt Q16620)
# Chain of UniProt Q16620 (whole entry, looked up): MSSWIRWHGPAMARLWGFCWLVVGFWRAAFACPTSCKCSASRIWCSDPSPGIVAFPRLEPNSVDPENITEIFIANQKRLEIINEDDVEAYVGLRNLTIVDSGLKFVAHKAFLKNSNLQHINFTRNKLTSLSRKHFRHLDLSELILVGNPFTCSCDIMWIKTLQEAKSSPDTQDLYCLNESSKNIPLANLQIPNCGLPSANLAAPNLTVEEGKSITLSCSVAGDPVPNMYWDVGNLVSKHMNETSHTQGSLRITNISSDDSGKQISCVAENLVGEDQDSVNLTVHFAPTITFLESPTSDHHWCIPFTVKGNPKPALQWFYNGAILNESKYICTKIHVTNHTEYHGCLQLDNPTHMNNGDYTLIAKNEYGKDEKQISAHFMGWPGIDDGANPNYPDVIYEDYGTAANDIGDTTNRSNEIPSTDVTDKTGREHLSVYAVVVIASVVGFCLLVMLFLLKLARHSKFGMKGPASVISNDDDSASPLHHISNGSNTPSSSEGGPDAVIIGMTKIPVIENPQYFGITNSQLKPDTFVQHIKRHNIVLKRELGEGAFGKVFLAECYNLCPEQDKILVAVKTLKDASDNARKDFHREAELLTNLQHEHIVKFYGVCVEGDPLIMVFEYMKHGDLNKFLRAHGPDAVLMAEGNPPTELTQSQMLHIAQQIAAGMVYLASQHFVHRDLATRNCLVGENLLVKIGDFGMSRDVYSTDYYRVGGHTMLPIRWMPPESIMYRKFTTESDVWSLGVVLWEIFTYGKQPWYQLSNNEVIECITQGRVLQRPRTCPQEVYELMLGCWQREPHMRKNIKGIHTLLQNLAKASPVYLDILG
# Read-out: enzyme activity
# Mode: inhibitor
# Tested at: 0.5 µM
# Reference: control
Compound,remaining activity [%]
O=C(c1ccccc1)c1ccc(N2CCOCC2)cc1O,92.7
C[C@@H](N)[C@H]1CC[C@H](C(=O)Nc2ccncc2)CC1,102
CCN(CC)CCCCN1c2ccccc2Oc2ccc(Cl)cc21,102
O=C1NC(=O)/C(=C/c2ccc3c(c2)OC(F)(F)O3)S1,91.9
NC(=O)c1cccc(-c2cc(Nc3ccc(OC(F)(F)F)cc3)ncn2)c1,96
N#C/C(=C(/N)SC1C=CC=CC1)c1cccc(C(O)c2ccncc2)c1 (centres unmarked),104
c1cc(-c2cnn3cc(-c4ccc(OCCN5CCCCC5)cc4)cnc23)ccn1,26.1
O=C(O)/C=C/c1cc(Br)c(Br)c(Br)c1Br,98.2
NC(=O)c1ccc(-c2nc(-c3ccc4c(c3)OCCO4)c(-c3ccccn3)[nH]2)cc1,103
Clc1ccc(Nc2nnc(Cc3ccncc3)c3ccccc23)cc1,102
N#CC(c1ccnc(NCCc2cccnc2)n1)c1nc2ccccc2s1 (centres unmarked),93.2
O=C1c2ccccc2-c2nc3nnnn3nc21,29.4
CNc1cc2c(Nc3cccc(Br)c3)ncnc2cn1,94.3
CCCCc1c(-c2ccc(O)cc2)[nH]c2nccnc12,73.7
FC(F)(F)c1ccc(/C=C/c2nc(COc3ccc(CCCCn4ccnn4)cc3)co2)cc1,102
Nc1nc(Nc2ccc(S(N)(=O)=O)cc2)nn1C(=S)Nc1c(F)cccc1F,11.8
CC(C)N(CCC(=O)c1ccc2ccccc2c1)Cc1ccccc1,92.1
COc1cc2c(Nc3ccc(Br)cc3F)ncnc2cc1OCC1CCN(C)CC1,93.2
O=Nc1c(-c2c(O)[nH]c3ccccc23)[nH]c2ccccc12,4.08
CC(C)n1cnc2c(Nc3cccc(Cl)c3)nc(NCCO)nc21,66.1
O=c1c(-c2ccc(F)cc2)c(-c2ccncc2)[nH]n1-c1ccc(Cl)cc1,88.5
CC(C)(C)c1nc2c3cc[nH]c(=O)c3c3cc(F)ccc3c2[nH]1,16.1

# Repeated from above (series 3):
Compound,inhibition [%]
C[C@H]1[C@H](C)CC[C@]2(C(=O)O)CC[C@]3(C)C(=CC[C@@H]4[C@@]5(C)CC[C@@H](O)C(C)(C)[C@@H]5CC[C@]43C)[C@H]12,-18
C=C[C@]1(C)CC[C@@H](C(=C)C)C[C@H]1C(=C)C,24
Cc1ccc(C(C)C)cc1O,-4
O=C1Nc2ccccc2/C1=C1/Nc2ccccc2C1=O,9
C[C@@H](NCCc1ccc(O)cc1)[C@@H](O)c1ccc(O)cc1 (racemic),2
CC1(C)Oc2cc3oc(=O)ccc3cc2CC1O (racemic),-19
CC/C=C\C/C=C\C/C=C\C/C=C\C/C=C\CCCCCC(=O)O,5
O=C(O)CC(=O)C(=O)O,-15
N#C/C(=C1/SC[C@@H](c2ccc(Cl)cc2Cl)S1)n1ccnc1,2
